Published values gathered from unrelated publications.
Compare with care: the assays were run in different laboratories. ± gives the spread as reported.

CCOc1ccc(N(C)S(=O)(=O)c2cc(Cl)sc2C(=O)Nc2cc(Cl)cc(C(=O)OCCOC)c2)cc1OC
EC50 (CCF-STTG1; reporter gene, activator, measured: ABCA1 promoter luciferase; 24 h): 0.07 µM

CC[C@H]1CN2CCc3cc(OC)c(OC)cc3[C@@H]2C[C@@H]1C[C@H]1NCCc2cc(OC)c(OC)cc21
EC50 (Toxoplasma gondii; parasite growth; HFF, bradyzoite, glutamine-induced): 1.08 µM

CCCNC(=O)[C@H]1O[C@@H]1C(=O)N[C@H](C(=O)N1CCC[C@H]1C(=O)OC)[C@@H](C)CC
EC50 (MCF-10A; cell viability, MTT; concentration not given, 72 h, irradiated 15 min up to 470 nm): 49 ± 0.5 µM

CCOC(=O)c1cccc(-c2nnc(-c3sc(Cl)cc3S(=O)(=O)N(C)c3ccc(OCC)c(OC)c3)o2)c1
EC50 (CCF-STTG1; reporter gene, activator, measured: ABCA1 promoter luciferase; 24 h): 3 µM

N#Cc1ccc(C[C@H](Nc2c(Nc3ccc(Br)cc3)c(=O)c2=O)C(=O)N2CCc3ccccc32)cc1
EC50 (human neutrophils; calcium mobilization, agonist): 0.6 ± 0.3 µM

C[C@]12CCCN1CC1=NNC(=O)c3cc(F)cc4[nH]c2c1c34
EC50 (BGC-823 gastric cancer cells; cell viability; concentration not given, added: with temozolomide): > 10 µM

CCOC(=O)c1cc(F)cc(NC(=O)c2sc(Cl)cc2S(=O)(=O)N(C)c2ccc(OCC)c(OC)c2)c1
EC50 (CCF-STTG1; ABCA1 promoter reporter, activator, luciferase reporter): 0.029 µM

N#Cc1ccc(C[C@@H](Nc2c(Nc3ccc(F)cc3)c(=O)c2=O)C(=O)N2CCc3ccccc32)cc1
EC50 (human neutrophils; calcium mobilization, agonist): 12.8 ± 2.9 µM

CCn1cc(-c2cc(Cn3ccoc3=N)cc3c2CCN([C@@H](C)c2cc(OC)ccn2)C3=O)c(C(F)(F)F)n1
EC50 (PSN1; cell growth, inhibitor; 120 h): 0.0189 µM

N.N.O=C([O-])C1(C(=O)[O-])CCC1.[Pt+2]
EC50 (OVCAR4 compound-resistant; cell viability): 233 µM

CC[C@H](C)[C@H](NC(=O)[C@H](CCCNC(=N)N)NC(=O)[C@H](CCCNC(=N)N)NC(=O)[C@H](CC(C)C)NC(=O)CNC(=O)[C@H](CCC(N)=O)NC(=O)[C@@H](NC(=O)[C@@H](NC(=O)[C@H](Cc1c[nH]c2ccccc12)NC(=O)[C@@H](NC(=O)[C@H](CCC(=O)O)NC(=O)[C@@H]1CCCN1C(=O)[C@@H](N)CCCNC(=N)N)[C@@H](C)CC)[C@@H](C)CC)[C@@H](C)O)C(=O)NCC(=O)N[C@@H](CC(=O)O)C(=O)N[C@@H](CCC(=O)O)C(=O)N[C@@H](Cc1ccccc1)C(=O)N[C@@H](CC(N)=O)C(=O)N[C@@H](C)C(=O)N[C@@H](Cc1ccc(O)cc1)C(=O)N[C@@H](Cc1ccc(O)cc1)C(=O)N[C@@H](C)C(=O)N[C@@H](CCCNC(=N)N)C(N)=O
EC50 (MDA-MB-231, Bcl-xL-dependent; mitochondrial depolarization, BH3 profiling with JC-1; 3 h): 18 ± 11 µM

CCOC(=O)c1cccc(NC(=O)c2sc(Cl)cc2S(=O)(=O)N(C)c2ccc(OCC)c(OCC)c2)c1
EC50 (CCF-STTG1; reporter gene, activator, measured: ABCA1 promoter luciferase; 24 h): 0.82 µM

CCn1cc(-c2cc(Cn3ccnc3)cc3c2CCN([C@H](c2cc(OC)ccn2)C2CC2)C3=O)c(C(F)(F)F)n1
EC50 (GCIY; cell growth, inhibitor; 120 h): 14.8 µM

Cc1ccc(-c2nnc(N[C@@H](Cc3ccc(C#N)cc3)C(=O)N3CCc4ccccc43)o2)cc1
EC50 (human neutrophils; calcium mobilization, agonist): 29.5 ± 10.8 µM

CCOc1ccc(N(C)S(=O)(=O)c2ccsc2C(=O)Nc2cccc(C(=O)OC)c2)cc1
EC50 (CCF-STTG1; reporter gene, activator, measured: ABCA1 promoter luciferase; 24 h): 4 µM

O=C1c2ccccc2C(=O)c2c(NCCc3ccc(O)cc3)ccc(NCCc3ccc(O)cc3)c21
EC50 (Toxoplasma gondii; parasite growth; HFF, bradyzoite, glutamine-induced): 3.96 µM

CCOc1ccc(N(C)S(=O)(=O)c2cc(Cl)sc2C(=O)Nc2cc(Cl)cc(C(=O)OC)c2)cc1OC
EC50 (CCF-STTG1; ABCA1 promoter reporter, activator, luciferase reporter): 0.339 µM

N#Cc1ccc(C[C@@H](NC(=O)c2cc3cc(F)ccc3[nH]2)C(=O)N2CCc3ccccc32)cc1
EC50 (human neutrophils; calcium mobilization, agonist): > 50 µM

Cc1ncc(Cl)cc1NCc1ccc(C(=O)N[C@@H](CC2CCCC2)C(=O)NC2CC2)s1
EC50 (K562 p21-reporter; p21 reporter gene, activator): 0.2 µM

C=C1C(=O)O[C@H]2[C@H]1CC/C(C)=C/CC[C@@]1(C)O[C@@H]21
EC50 (MYBPC3 mutant iPSC-derived cardiomyocytes; measured: MYH; 24 h): inactive

N#Cc1ccc(C[C@H](Nc2ncc(-c3ccc(F)cc3)o2)C(=O)N2CCc3ccccc32)cc1
EC50 (human neutrophils; calcium mobilization, agonist): > 50 µM

COc1cnc2cccc(N3CCc4c(cc(Cn5ccnc5C)cc4-c4cn(C)nc4C(F)(F)F)C3=O)c2c1
EC50 (U266B1; cell growth; 120 h): > 30 µM

N#Cc1ccc(C[C@H](NC(=O)c2cc3ccccc3[nH]2)C(=O)N2CCc3ccccc32)cc1
EC50 (human neutrophils; calcium mobilization, agonist): > 50 µM

CCOc1ccc(N(C)S(=O)(=O)c2cc(Cl)sc2C(=O)Nc2cc(Cl)cc(C(=O)OCCOCCOC)c2)cc1OC
EC50 (CCF-STTG1; ABCA1 promoter reporter, activator, luciferase reporter): 0.138 µM

N#Cc1ccc(C[C@@H](Nc2nnc(-c3ccc(F)cc3)s2)C(=O)N2CCc3ccccc32)cc1
EC50 (human neutrophils; calcium mobilization, agonist): > 50 µM

CCOC(=O)c1cccc(NC(=O)c2sccc2S(=O)(=O)N(C)c2cccc(OCC)c2)c1
EC50 (CCF-STTG1; reporter gene, activator, measured: ABCA1 promoter luciferase; 24 h): 4.6 µM

N#Cc1ccc(C[C@H](Nc2nnc(-c3ccc(Br)cc3)s2)C(=O)N2CCc3ccccc32)cc1
EC50 (human neutrophils; calcium mobilization, agonist): > 50 µM

C[C@H]1CNCCN1c1nccc(-c2noc3c2CCC[C@@]32CCCc3sc(N)c(C#N)c32)n1
EC50 (Ba/F3 (NRAS dependent); cell growth; 72 h, without IL-3): 1.58 µM

Repeated from above:
N#Cc1ccc(C[C@H](Nc2ncc(-c3ccc(F)cc3)o2)C(=O)N2CCc3ccccc32)cc1
EC50 (human neutrophils; calcium mobilization, agonist): > 50 µM

CCn1cc(-c2cc(Cn3ccnc3)cc3c2CCN([C@H](c2cc(OC)ccn2)C2CC2)C3=O)c(C(F)(F)F)n1
EC50 (GCIY; cell growth, inhibitor; 120 h): 14.8 µM
